Results collected from several papers.
Parts stem from different laboratories: compare values within a part only.
Chain of UniProt O14733 (whole entry, looked up): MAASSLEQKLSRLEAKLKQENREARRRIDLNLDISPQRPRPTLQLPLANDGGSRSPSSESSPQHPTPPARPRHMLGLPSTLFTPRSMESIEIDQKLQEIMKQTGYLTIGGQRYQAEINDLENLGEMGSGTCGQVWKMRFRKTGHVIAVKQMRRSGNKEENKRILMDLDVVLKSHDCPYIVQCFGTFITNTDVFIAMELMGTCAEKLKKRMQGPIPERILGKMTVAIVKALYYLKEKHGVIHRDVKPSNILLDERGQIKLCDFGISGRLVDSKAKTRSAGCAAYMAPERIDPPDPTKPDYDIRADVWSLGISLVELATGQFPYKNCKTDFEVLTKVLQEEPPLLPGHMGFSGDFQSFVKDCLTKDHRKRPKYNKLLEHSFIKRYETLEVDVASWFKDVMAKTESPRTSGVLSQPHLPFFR
Chain of UniProt O14965 (whole entry, looked up): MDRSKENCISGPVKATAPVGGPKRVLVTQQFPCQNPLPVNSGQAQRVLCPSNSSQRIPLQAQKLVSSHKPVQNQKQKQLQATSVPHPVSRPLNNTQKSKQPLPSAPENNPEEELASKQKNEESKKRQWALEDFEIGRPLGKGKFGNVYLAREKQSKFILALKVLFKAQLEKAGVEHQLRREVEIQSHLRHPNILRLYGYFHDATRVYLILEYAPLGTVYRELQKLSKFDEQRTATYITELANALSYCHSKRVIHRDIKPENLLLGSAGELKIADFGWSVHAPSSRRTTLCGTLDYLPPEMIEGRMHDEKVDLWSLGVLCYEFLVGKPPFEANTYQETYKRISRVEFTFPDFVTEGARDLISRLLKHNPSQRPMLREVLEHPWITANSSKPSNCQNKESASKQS
Chain of UniProt P54756 (whole entry, looked up): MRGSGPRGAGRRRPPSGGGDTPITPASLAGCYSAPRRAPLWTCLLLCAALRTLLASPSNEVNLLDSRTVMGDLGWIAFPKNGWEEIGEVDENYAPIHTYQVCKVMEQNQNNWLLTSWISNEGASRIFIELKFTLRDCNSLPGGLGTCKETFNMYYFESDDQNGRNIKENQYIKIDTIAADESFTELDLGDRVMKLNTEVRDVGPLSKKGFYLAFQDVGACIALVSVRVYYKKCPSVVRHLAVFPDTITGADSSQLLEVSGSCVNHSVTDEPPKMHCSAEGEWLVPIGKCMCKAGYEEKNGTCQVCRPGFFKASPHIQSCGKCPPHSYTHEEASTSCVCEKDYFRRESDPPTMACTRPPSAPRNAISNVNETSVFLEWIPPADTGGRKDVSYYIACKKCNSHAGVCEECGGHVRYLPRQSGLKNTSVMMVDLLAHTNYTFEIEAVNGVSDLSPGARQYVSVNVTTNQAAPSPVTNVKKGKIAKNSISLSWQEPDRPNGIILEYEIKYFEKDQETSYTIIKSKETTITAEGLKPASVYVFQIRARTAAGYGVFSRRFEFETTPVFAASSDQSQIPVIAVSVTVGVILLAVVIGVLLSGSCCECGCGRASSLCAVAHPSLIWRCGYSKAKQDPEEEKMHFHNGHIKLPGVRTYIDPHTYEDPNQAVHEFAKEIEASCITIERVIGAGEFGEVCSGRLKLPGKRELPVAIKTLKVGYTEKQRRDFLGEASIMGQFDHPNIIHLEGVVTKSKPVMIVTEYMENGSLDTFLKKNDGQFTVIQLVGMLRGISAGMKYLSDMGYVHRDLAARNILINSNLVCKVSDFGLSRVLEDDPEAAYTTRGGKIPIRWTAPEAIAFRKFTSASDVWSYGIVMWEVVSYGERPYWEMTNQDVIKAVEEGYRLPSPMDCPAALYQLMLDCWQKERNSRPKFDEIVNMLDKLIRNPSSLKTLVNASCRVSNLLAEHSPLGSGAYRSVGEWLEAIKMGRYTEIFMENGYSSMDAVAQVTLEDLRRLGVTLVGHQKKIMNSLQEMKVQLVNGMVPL
Chain of UniProt P42679 (whole entry, looked up): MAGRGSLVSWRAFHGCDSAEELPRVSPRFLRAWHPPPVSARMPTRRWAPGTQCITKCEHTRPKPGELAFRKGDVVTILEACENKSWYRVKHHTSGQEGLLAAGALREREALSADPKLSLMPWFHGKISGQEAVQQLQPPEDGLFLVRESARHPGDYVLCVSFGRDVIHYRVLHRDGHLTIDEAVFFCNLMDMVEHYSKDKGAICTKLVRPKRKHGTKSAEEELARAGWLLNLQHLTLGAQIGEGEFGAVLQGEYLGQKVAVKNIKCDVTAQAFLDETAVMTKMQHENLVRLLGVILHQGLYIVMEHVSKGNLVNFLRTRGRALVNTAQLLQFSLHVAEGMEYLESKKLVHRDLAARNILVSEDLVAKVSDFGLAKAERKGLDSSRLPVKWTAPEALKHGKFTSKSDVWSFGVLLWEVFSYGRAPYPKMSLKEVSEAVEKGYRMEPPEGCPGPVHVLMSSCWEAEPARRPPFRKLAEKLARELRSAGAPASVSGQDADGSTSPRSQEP
Chain of UniProt Q8TDC3 (whole entry, looked up): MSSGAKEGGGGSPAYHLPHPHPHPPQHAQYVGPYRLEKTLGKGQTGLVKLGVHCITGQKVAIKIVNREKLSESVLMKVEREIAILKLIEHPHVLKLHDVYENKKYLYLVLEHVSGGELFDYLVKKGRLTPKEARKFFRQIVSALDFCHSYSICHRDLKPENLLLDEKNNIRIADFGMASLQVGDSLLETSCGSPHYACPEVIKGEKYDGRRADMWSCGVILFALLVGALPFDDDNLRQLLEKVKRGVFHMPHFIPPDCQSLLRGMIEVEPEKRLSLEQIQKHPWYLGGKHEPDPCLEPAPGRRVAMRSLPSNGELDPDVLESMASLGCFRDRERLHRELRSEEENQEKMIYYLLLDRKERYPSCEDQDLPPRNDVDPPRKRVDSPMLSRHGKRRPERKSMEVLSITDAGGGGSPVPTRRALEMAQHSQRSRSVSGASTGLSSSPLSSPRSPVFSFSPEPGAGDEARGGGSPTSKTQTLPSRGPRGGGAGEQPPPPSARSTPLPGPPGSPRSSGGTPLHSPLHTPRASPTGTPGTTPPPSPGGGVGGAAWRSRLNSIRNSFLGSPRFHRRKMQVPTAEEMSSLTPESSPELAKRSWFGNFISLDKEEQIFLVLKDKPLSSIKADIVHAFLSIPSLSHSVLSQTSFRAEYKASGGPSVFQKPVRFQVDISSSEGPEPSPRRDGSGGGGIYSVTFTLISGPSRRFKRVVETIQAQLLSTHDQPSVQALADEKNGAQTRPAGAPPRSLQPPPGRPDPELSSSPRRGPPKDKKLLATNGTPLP
Chain of UniProt O43283 (whole entry, looked up): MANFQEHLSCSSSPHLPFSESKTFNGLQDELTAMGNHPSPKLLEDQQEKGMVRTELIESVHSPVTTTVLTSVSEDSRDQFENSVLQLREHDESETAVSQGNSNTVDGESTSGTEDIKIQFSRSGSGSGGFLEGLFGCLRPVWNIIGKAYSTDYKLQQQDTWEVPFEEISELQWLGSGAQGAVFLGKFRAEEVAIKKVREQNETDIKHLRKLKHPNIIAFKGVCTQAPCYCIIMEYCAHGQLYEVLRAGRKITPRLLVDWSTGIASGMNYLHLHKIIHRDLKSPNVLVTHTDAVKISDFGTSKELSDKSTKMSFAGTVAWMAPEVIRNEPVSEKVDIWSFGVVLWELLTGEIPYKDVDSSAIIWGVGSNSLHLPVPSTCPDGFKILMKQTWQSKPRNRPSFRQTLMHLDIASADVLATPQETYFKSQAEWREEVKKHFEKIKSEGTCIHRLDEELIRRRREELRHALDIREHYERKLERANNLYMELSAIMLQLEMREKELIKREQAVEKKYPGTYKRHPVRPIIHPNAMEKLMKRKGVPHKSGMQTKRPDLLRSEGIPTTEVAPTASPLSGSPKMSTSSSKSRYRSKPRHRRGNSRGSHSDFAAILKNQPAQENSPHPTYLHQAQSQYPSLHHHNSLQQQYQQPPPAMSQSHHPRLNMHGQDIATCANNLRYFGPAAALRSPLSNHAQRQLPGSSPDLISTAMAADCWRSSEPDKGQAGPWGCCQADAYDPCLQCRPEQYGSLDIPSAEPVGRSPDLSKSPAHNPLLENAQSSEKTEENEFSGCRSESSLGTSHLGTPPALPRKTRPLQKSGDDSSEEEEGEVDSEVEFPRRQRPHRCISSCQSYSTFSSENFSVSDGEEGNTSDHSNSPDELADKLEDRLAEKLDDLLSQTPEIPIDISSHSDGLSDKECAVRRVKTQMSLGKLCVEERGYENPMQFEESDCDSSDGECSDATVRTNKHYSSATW

Block 1
Cell line: HaCaT
Tested at: 100 µM
Time: 36 h
Measurement: viability
Cc1ccc(=O)n(-c2ccccc2)c1: 108%
Nc1nc(O)c2ncn(COC(CO)CO)c2n1: 100%
O=C1CC2(CCCC2)CC(=O)N1CCCCN1CCN(c2ncccn2)CC1: 91.6%
O=c1[nH]c(=O)n([C@H]2C[C@H](O)[C@@H](CO)O2)cc1F: 36.1%
OC[C@@H](O)[C@@H](O[C@@H]1O[C@H](CO)[C@H](O)[C@H](O)[C@H]1O)[C@H](O)[C@@H](O)CO: 73.2%
COc1ccc2c(c1)c(CC(=O)OCC(=O)O)c(C)n2C(=O)c1ccc(Cl)cc1: 91.8%

Block 2
Target: BDNF/NT-3 growth factors receptor (NTRK2, Homo sapiens, UniProt Q16620)
Chain of UniProt Q16620 (whole entry, looked up): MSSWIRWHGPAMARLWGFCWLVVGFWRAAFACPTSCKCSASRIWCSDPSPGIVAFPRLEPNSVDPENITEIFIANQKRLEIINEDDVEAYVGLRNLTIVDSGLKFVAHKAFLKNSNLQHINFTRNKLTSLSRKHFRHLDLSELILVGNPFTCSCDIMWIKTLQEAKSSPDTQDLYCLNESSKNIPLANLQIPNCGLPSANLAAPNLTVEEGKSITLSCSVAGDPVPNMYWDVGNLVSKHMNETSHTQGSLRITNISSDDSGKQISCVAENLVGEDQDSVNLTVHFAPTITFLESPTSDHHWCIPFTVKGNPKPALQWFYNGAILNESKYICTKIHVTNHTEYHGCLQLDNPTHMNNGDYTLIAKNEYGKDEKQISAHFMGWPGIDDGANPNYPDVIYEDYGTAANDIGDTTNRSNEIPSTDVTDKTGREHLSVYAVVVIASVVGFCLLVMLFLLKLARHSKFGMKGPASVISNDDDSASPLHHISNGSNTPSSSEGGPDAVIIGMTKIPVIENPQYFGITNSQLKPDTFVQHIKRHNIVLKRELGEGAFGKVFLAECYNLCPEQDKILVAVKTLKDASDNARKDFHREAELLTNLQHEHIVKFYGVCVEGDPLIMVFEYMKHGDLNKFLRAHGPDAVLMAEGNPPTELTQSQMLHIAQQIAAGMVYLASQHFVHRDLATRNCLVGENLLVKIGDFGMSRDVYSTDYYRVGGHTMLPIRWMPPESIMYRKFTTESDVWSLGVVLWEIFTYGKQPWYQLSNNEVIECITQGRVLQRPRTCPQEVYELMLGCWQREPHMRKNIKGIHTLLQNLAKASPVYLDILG
Read-out: enzyme activity
Action: inhibitor
Tested at: 0.5 µM
Relative to: control
Measurement: remaining activity
Nc1ncnc2n[nH]c(Nc3ccc(F)cc3)c12: 101%
OCC(O)CCON=C1C(c2c(O)[nH]c3ccccc23)=Nc2ccccc21 (centres unmarked): 1.62%
O=C(O)c1ccc2c3c1cccc3c(=O)n1c3ccccc3nc21: 98.4%
O=c1c2ccccc2[nH]c(=S)n1CCN1CCC(=C(c2ccc(F)cc2)c2ccc(F)cc2)CC1: 106%
O=C(Nc1cccc(Nc2cc(Nc3cccc(C(F)(F)F)c3)ncn2)c1)C1CC1: 100%
C#Cc1cccc(Nc2ncnc3cc(OCCOC)c(OCCOC)cc23)c1: 93.1%
COc1ccc(OC)c2c(=S)c3ccccc3[nH]c12: 94%
Nc1[nH]nc2nc3ccccc3nc12: 96.4%
O=C1NC(=O)C(c2cn(CCCO)c3ncccc23)=C1c1cnccn1: 99.7%
Cc1nc(-c2ccccc2)c(-c2ccncc2)o1: 103%
COc1cc2nccc(Oc3ccc(NC(=S)NC(=O)c4ccccc4C)cc3)c2cc1OC: 102%
Cc1cccc(-c2[nH]c(C(C)(C)C)nc2-c2ccc3c(c2)OCO3)n1: 96.4%
O=C(CCCc1ccc(-c2ccccc2F)cc1)Nc1ccc(O)cc1: 95.8%
Nc1ccc2ncnc(NCCc3ccc(Oc4ccccc4)cc3)c2c1: 104%
COc1ccc(C(=O)Nc2sc3c(c2C(N)=O)CCCC3)cc1OC: 67.4%

Block 3
Cell line: mouse MPNST tumor cells
Method: high-content nuclear imaging
Measured: cell number
Tested at: 10 µM
Time: 12 h
Notes: mean of 2 replicates
Relative to: plate mean
Direction: higher = more cells
Measurement: nuclei count
CN(Cc1cnc2nc(N)nc(N)c2n1)c1ccc(C(=O)N[C@@H](CCC(=O)O)C(=O)O)cc1: -1.05 z-score
Cc1ccc2c(c1)c1c3n2CCNC3CCC1 (centres unmarked): 0.944 z-score
COc1ccc2c(c1)C(C(=O)N(Cc1ccc(N(C)C)cc1)c1ccc(C(C)C)cc1)CCC2 (centres unmarked): 1.01 z-score
COc1cc2c(NC3CCN(C)CC3)nc(N3CCCN(C)CC3)nc2cc1OCCCN(C)C: 0.491 z-score
COc1c(C)cnc(Cn2cc(C#CCC(C)(C)O)c3c(Cl)nc(N)nc32)c1C: -1.78 z-score
CCCCC(=O)O[C@H]1CC[C@H]2[C@@H]3CCc4cc(O)ccc4[C@H]3CC[C@]12C: -0.782 z-score

Block 4
Compound: CCS(=O)(=O)c1cc2cc(C[C@](O)(CC(C)(C)c3ccc(F)cc3C(N)=O)C(F)(F)F)[nH]c2cn1
Tested at: 1 µM
Measurement: remaining binding
MAP2K7 (Homo sapiens, UniProt O14733); cell-free assay, competition with immobilised ligand: 99%
MATK (Homo sapiens, UniProt P42679); cell-free assay, competition with immobilised ligand: 100%
MAP3K13 (Homo sapiens, UniProt O43283); cell-free assay, competition with immobilised ligand: 90%
EPHA5 (Homo sapiens, UniProt P54756); cell-free assay, competition with immobilised ligand: 100%
PAK4 (Homo sapiens, UniProt O96013); cell-free assay, competition with immobilised ligand: 100%
BRSK1 (Homo sapiens, UniProt Q8TDC3); cell-free assay, competition with immobilised ligand: 99%
SIK1 (Homo sapiens, UniProt P57059); competition binding: 100%
Aurora kinase A (AURKA, Homo sapiens, UniProt O14965); cell-free assay, competition with immobilised ligand: 88%
